Experimental data of several laboratories.
Lines come from different studies, so protocols differ. ± gives the spread as reported.

Clc1ccc2c(NC3CCOc4ccccc43)ccnc2c1 (centres unmarked)  activation (Nuclear receptor subfamily 4 group A member 2, ligand binding domain (Homo sapiens, UniProt P43354); reporter gene, agonist, Gal4-Nurr1 hybrid reporter; HEK-293T; 30 µM, crude library product; reference: vehicle (0.1% DMSO)): > 1.5 fold
COc1cc(C(=O)NC2CCC(N3CCN(CC4CCC5(CCCC5)C4)CC3)CC2)c(F)cc1Nc1ncc2c(n1)N(C1CCCC1(F)F)CC(F)(F)C(=O)N2C (centres unmarked)  inhibition (High affinity nerve growth factor receptor (NTRK1, Homo sapiens, UniProt P04629); cell-free assay, TR-FRET; 10 µM): 0.75%
CC(/C=C/C(=O)NO)=C\[C@@H](C)C(=O)c1ccc(N(C)C)cc1  ΔCp (Histone deacetylase 8 (HDAC8, Homo sapiens, UniProt Q9BY41); temperature-dependent ITC; Tris-HCl buffer; range from 5 °C): -0.21 ± 0.01 kcal mol^–1 K^–1
Nc1nc2c(ncn2C2CC(O)C(COP(=O)(O)OP(=O)(O)C(F)(Cl)P(=O)(O)O)O2)c(=O)[nH]1 (mixture of isomers)  kpol/Kd (DNA polymerase beta (POLB, Homo sapiens, UniProt P06746, I260M); nucleotide incorporation, substrate, single turnover kinetics; dG misincorporation opposite A): 3.4 ± 0.91 M⁻¹ s⁻¹
COc1ccc(CCNc2nc(-c3ccccc3)cc(C(F)(F)F)n2)cc1OC  Emax (Secretin receptor (SCTR, Homo sapiens, UniProt P47872); cAMP accumulation, positive allosteric modulator; CHO-K1 overexpressing SCTR; with: EC10-EC20 secretin peptide mix; reference: EC95 peptide mix): 45 ± 19%
CC[C@H](C)[C@H](NC(=O)[C@H](Cc1c[nH]c2ccccc12)NC(=O)[C@@H](NC(=O)[C@H](CCC(=O)O)NC(=O)[C@@H]1CCCN1C(=O)[C@H](CCCNC(=N)N)NC(C)=O)[C@@H](C)CC)C(=O)N[C@@H](C)C(=O)N[C@@H](CCC(N)=O)C(=O)N[C@@H](CCC(=O)O)C(=O)N[C@@H](CC(C)C)C(=O)N[C@@H](CCCNC(=N)N)C(=O)N[C@@H](CCCNC(=N)N)C(=O)N[C@@H](C)C(=O)NCC(=O)N[C@@H](CCCCN)C(=O)N[C@H](C(=O)N[C@@H](CC(C)C)C(=O)N[C@@H](CC(N)=O)C(=O)N[C@@H](C)C(=O)N[C@@H](Cc1ccc(O)cc1)C(=O)N[C@@H](Cc1ccc(O)cc1)C(=O)N[C@@H](C)C(=O)N[C@@H](CCCNC(=N)N)C(N)=O)C(C)C  dissociation half-life (Bcl-2-related protein A1 (Homo sapiens, UniProt Q16548); fluorescence anisotropy; 37 °C, with: excess unlabeled Bim, 1 µM): ~5 min
C=CC(=O)N1CCCC(n2c(=O)c3ncccc3n(Cc3ccc(Oc4ccccc4)cc3)c2=O)C1 (centres unmarked)  actin assembly rate increase (WAS (Homo sapiens, UniProt P42768); pyrene actin; concentration not given; reference: actin alone): 50 to 60%
CC(=O)NCC(=O)N[C@@H](CC(=O)O)C(=O)N[C@@H](Cc1ccc(O)cc1)C(=O)N[C@@H](CO)C(=O)N[C@@H](Cc1c[nH]cn1)C(=O)N[C@H]1CSSC[C@@H](C(=O)N[C@H](C(=O)N[C@@H](Cc2ccc(O)cc2)C(=O)N2CCC[C@H]2C(=O)N[C@@H](CC(=O)O)C(=O)N2CCC[C@H]2C(=O)N[C@@H](CCC(=O)O)C(=O)NCC(=O)NCC(=O)NCC(N)=O)[C@@H](C)O)NC(=O)[C@H](CCCCN)NC(=O)[C@H](Cc2c[nH]c3ccccc23)NC(=O)[C@H](Cc2c[nH]c3ccccc23)NC(=O)[C@@H]2CCCN2C(=O)[C@H](Cc2ccc(O)cc2)NC(=O)[C@H](Cc2ccc(O)cc2)NC(=O)[C@H](CCCNC(=N)N)NC(=O)[C@H](CC(C)C)NC(=O)[C@@H]2CCCN2C(=O)[C@H](CO)NC1=O  maximal inhibition (Angiotensin-converting enzyme (Mus musculus, UniProt P09470); enzyme activity, inhibitor; mouse heart homogenate; 4 h): 15 ± 2%
COc1ccc(CNc2nc3c(c(=O)[nH]2)[n+](C)cn3C2OC(COP(=O)(O)OP(=O)([O-])OP(=O)(O)OCC3OC(n4cnc5c(=O)[nH]c(N)nc54)C(O)C3O)C(O)C2O)cc1 (centres unmarked)  melting temperature (Eukaryotic translation initiation factor 4E (Eif4e, Mus musculus, UniProt P63073); differential scanning fluorimetry; 100 µM): 50.4 °C
Cc1ccc(N2CCN(C(=O)c3noc(-c4ccc(F)cc4)n3)CC2)cc1  current fold increase (Potassium voltage-gated channel subfamily KQT member 2 (KCNQ2, Homo sapiens, UniProt O43526); potassium current, activator, whole-cell patch clamp; CHO, stable; 20 µM; reference: current before compound): 1.03 ± 0.07
CN1CCN(CC(=O)N2N=C3/C(=C/c4ccccc4)CCCC3C2c2ccccc2)CC1 (mixture of isomers)  enzyme activity (Polyunsaturated fatty acid lipoxygenase ALOX15B (ALOX15B, Homo sapiens, UniProt O15296); activator; 10 µM, with: arachidonic acid 10 µM; reference: activator 0 µM): 74.4%
CC(=O)NCCc1ccc(O)c(O)c1  maximal inhibition (Carbamate kinase (Giardia intestinalis, UniProt A8BB85); enzyme activity, inhibitor, luminescence, ATP detection; Giardia lamblia): 77.3%
COc1ccc2c(c1Br)CC[C@@H]1[C@@H]2CC[C@@]2(C)C(=O)CC[C@@H]12  inhibition (Aldo-keto reductase family 1 member C3 (AKR1C3, Homo sapiens, UniProt P42330); enzyme activity, inhibitor, absorbance; 10 µM, pH 9): 44.6%
Nc1nc2c(ncn2[C@H]2C[C@H](O)[C@@H](COP(=O)(O)OP(=O)(O)[C@@H](Cl)P(=O)(O)O)O2)c(=O)[nH]1  kpol (DNA polymerase beta (POLB, Homo sapiens, UniProt P06746); substrate, quench-flow kinetics; pH 8.0, 37 °C, incorporation opposite C in gapped DNA): 4.8 s⁻¹
